Experimental data collected from several papers.
Numbered parts are unrelated; each lists some results of a single study.

Sample 1
Target: Histone acetyltransferase KAT6A, winged helix 2, GST fusion (KAT6A, Homo sapiens, UniProt Q92794, residues 85-181)
Technique: protein binding microarray
Molecule type: double-stranded DNA, one strand shown
Matrix: in vitro
Tested at: not given
Notes: 8-mer, flanks averaged, mean of 2 arrays, mostly near background
Reference: not given
Direction: higher = stronger binding
Endpoint: E-score
Construct (chain): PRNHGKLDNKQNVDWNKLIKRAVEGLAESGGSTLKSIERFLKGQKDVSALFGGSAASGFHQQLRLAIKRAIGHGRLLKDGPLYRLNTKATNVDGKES
CTGGCGAC: 0.133
ACGGGTGC: 0.0187
CTGCAATC: -0.00261
ACATCAGA: -0.085
ATAAAGGA: -0.0716
ATGAGTTC: -0.124

Sample 2
Target: Hepatocyte nuclear factor 3-beta, forkhead domain (FOXA2, Homo sapiens, UniProt Q9Y261, residues 142-269)
Technique: protein-binding microarray
Molecule type: double-stranded DNA, one strand shown
Matrix: in vitro
Tested at: not given
Notes: k-mer, scored over probes, only values ≥0.25
Direction: higher = stronger binding
Endpoint: E-score
Construct (chain): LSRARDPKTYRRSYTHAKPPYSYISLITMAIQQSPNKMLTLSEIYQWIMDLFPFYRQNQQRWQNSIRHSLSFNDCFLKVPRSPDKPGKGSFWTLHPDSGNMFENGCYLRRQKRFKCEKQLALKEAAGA
ACCAATTA: 0.271
AATACACC: 0.319
AATGTGTG: 0.344
AATGAGTA: 0.27
ACTATACA: 0.292
ACCTGATA: 0.255
TATATAAA: 0.362
ACCACAAC: 0.251

Sample 3
Target: Interferon regulatory factor 3, full length, phosphomimetic (IRF3, Homo sapiens, UniProt Q14653, residues 1-427, S386D/S396D/S398D/S402D/T404D/S405D)
Technique: protein-binding microarray
Molecule type: double-stranded DNA, one strand shown
Matrix: in vitro
Tested at: 2540 nM top
Notes: 60-bp whole probe
Together with: salmon DNA 0.4 mg/ml
Reference: random background probes
Direction: higher = stronger binding
Endpoint: fitted relative affinity
All sequences stand within: GCCTAGCAC … GTCTTGATTCGCTTGACGCTGCTG
Residues (chain): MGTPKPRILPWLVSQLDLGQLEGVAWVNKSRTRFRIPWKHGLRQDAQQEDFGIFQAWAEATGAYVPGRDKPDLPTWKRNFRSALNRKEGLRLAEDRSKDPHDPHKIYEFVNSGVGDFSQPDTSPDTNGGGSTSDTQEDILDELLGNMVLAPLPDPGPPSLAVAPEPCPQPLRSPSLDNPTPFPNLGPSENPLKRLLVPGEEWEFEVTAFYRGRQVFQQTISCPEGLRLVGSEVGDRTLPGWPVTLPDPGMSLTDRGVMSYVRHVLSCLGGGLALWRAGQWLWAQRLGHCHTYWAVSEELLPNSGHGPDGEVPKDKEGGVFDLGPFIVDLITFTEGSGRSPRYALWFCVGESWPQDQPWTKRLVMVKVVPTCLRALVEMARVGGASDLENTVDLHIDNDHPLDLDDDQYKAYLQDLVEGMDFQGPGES
TAAGGTTTCGGTTTCGGTTAGTGCTAG: 12.7 z-score
TCACCTGTCCATTCCTTACTGTGCTAG: 1.46 z-score
TTATGTATCGGGACTGGGTTAGTGCTA: 1.32 z-score
GACGATATCGGGTATCGTGACGTGCTA: 0.0879 z-score
GACGATATCAGACTTGAGACGTGCTAG: 0.731 z-score
GACGGTCTCGGTCTCGGCACGTGCTAG: 1.39 z-score
GAGGGTCTCCTACTGCTGACGTGCTAG: 0.0392 z-score
TTAGGTCTCGGACTGGATTAGTGCTAG: -0.274 z-score
TTAGGTATCGACTATCGTTTAGTGCTA: 0.436 z-score
GACGGACTGGGGTTTCGCGACGTGCTA: -0.661 z-score
CTTTAACTTATTCTCTACTTGTGCTAG: 1.25 z-score

Other studies, line by line
PhoQ, residues 284 288 289 292 302 303 AQGLTV — fold induction (PhoP, residues 12 14 15 18 19 NHTVL (Escherichia coli, UniProt P23836); Sort-seq, measured: YFP reporter; E. coli; PhoQ-PhoP variant library, together with: 10 µM Mg2+; reference: high Mg2+ state, higher = stronger signaling): 1.24

Some of these lines once more (sample 3):
GACGATATCGGGTATCGTGACGTGCTA: 0.0879 z-score
GACGATATCAGACTTGAGACGTGCTAG: 0.731 z-score
GACGGTCTCGGTCTCGGCACGTGCTAG: 1.39 z-score
